Earlier results that unrelated publications cite.
Lines come from different studies, so protocols differ. ± gives the spread as reported.
Chain of UniProt Q92918 (whole entry, looked up): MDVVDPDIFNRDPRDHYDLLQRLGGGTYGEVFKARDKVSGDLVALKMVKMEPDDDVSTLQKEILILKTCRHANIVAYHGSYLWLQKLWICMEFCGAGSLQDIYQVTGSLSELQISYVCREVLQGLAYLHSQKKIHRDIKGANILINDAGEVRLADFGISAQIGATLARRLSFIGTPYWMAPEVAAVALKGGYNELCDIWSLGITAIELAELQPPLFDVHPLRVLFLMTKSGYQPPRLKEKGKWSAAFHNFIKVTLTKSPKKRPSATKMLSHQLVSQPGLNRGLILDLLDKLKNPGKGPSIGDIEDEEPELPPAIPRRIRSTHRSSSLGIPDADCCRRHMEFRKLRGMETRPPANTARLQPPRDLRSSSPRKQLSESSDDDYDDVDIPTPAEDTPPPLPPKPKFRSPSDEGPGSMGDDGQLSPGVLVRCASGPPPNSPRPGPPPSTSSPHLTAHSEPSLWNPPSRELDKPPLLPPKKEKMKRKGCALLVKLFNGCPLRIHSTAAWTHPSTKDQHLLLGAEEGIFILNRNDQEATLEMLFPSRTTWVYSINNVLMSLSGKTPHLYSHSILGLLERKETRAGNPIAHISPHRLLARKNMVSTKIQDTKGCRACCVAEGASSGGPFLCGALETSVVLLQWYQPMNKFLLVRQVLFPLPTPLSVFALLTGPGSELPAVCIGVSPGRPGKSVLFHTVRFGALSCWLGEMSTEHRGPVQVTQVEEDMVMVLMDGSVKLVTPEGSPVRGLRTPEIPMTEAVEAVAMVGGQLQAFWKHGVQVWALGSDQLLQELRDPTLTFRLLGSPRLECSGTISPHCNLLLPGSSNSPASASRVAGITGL

COc1cc2c(Oc3ccc(CC(=O)N/N=C(/C)c4ccccc4)cc3F)ccnc2cc1OCCCN1CCCC1  IC50 (A549; cell growth; 72 h): 280 nM
CC1CS(=O)(=O)CCN1/N=C/c1ccc([N+](=O)[O-])o1 (stereo not drawn)  IC50 (Vero CCL-81): 998000 ± 91000 nM
Cc1ccc(C)c(COc2cc(NC(=O)Cc3ccccc3)ccc2N(C)S(C)(=O)=O)c1  IC50 (SK-BR-3; cell growth, MTT; 48 h): 121000 ± 35100 nM
CC(=O)c1c(C)c2cnc(Nc3ccc(N4CCNCC4)cn3)nc2n(C2CCCC2)c1=O  IC50 (U-87 MG): 59000 nM
CC1(C)S[C@@H]2[C@H](NC(=O)[C@H](N)c3ccccc3)C(=O)N2[C@H]1C(=O)O  MIC (Acinetobacter baumannii; clinical isolate RKI-No_377/15): > 16 µg/mL
COc1cc2c(Oc3ccc(NC(=O)c4nccc(-c5ccc(F)cc5)n4)cc3F)ccnc2cc1OCCCN1CCCC1  IC50 (A549; cell growth; 72 h): 990 nM
N#CCNC(=O)c1ccc(-c2ccnc(Nc3ccc(N4CCOCC4)cc3)n2)cc1  IC50 (MDA-MB-231; cell growth; 72 h): 4200 nM
CN(C)c1ccc(C(=O)N(CC(=O)NCc2ccccc2)Cc2ccc(C(=O)Nc3ccccc3N)cc2)cc1  IC50 (Cal27CisR; cellular HDAC activity, inhibitor; added: Boc-Lys(ε-Ac)-AMC substrate): 491 ± 52 nM
CC(=O)c1ccc(-c2cccc(NC(=O)CCc3cccc4c3B(O)OC4)c2)cc1  IC50 (lung fibroblast cell line; cell proliferation): 3700 nM
O=C(Nc1ccc(Oc2ccnc3[nH]ccc23)cc1)c1cc2cccnc2n(-c2ccc(F)cc2)c1=O  IC50 (A549; cell growth; 72 h): 210 nM
Cc1c(C#N)cccc1[C@@H](C)Nc1nnc(C)c2cnc(N3CCOCC3)cc12  IC50 (RERF-LC-Ad1; cell viability, 3D CellTiter-Glo; 14 days): > 1000 nM
CC(=O)O[C@H](C)C(=O)CCCCC[C@@H]1NC(=O)[C@H]2CCCN2C(=O)[C@H](Cc2ccccc2)NC(=O)C(C)(C)NC1=O  IC50 (K562): 61 nM
CCCCN(CCCC)CC(O)c1cc(Cl)cc2c1-c1ccc(Cl)cc1/C2=C/c1ccc(Cl)cc1 (stereo not drawn)  IC50 (HepG2; cell viability): > 250000 nM
C=CC(=O)Nc1cc(Nc2nccc(-c3cn(C)c4ccccc34)n2)c(OC)cc1N(C)CCN(C)C  IC50 (U-87 MG): 15100 nM
COc1ccc(-c2cn(CC(=O)O[C@H]3c4cc5c(cc4[C@@H](c4cc(OC)c(OC)c(OC)c4)[C@H]4C(=O)OC[C@@H]43)OCO5)nn2)cc1  IC50 (A549; cell growth; 72 h): 15.8 nM
Cn1ncc(Cl)c1-c1cc(C(=O)N[C@H](CN)Cc2ccc(F)c(F)c2)oc1Cl  IC50 (U-87 MG): 90400 nM
N=C(N)c1ccc(Nc2ccc(-c3cc4ccc(C(=N)N)cc4[nH]3)cc2)cc1  IC50 (K562; cell proliferation): 1080 nM
COc1cccc2c1C(=O)c1c(O)c3c(c(O)c1C2=O)C[C@@](O)(C(=O)CO)C[C@@H]3O[C@H]1C[C@H](N)[C@H](O)[C@H](C)O1  IC50 (HepG2): 9200 nM
CC(C)(c1ccc(O)cc1)c1ccc(O)cc1  IC50 (MDA-kb2; cell viability; 24 h): > 100000 nM
COc1cc2c(Oc3ccc(NC(=O)C4(C(=O)Nc5ccc(F)cc5)CC4)cc3F)ccnc2cc1OCCCN1CCOCC1  IC50 (U-87 MG): 2650 nM
CCOC(=O)c1nn(-c2ccccc2)c(C#N)c1NC(=O)c1nn(CC)cc1Br  IC50 (human monocytes; phagocytosis of anti-D RBCs): 2700 nM
COc1cc2c(cc1OC)C(c1c[nH]c3ncccc13)NCC2 (stereo not drawn)  IC50 (COLO 205; cytotoxicity): > 100000 nM
Cc1cc(-c2nccc3c2ccn3CC(=O)Nc2ccc(-c3cnccn3)cn2)ccn1  IC50 (murine L cells expressing WNT3A; WNT release, inhibitor): 0.64 nM
CC(=O)Nc1cccc(-n2c(=O)n(C3CC3)c(=O)c3c(Nc4ccc(I)cc4F)n(C)c(=O)c(C)c32)c1  IC50 (U-87 MG): 2720 nM
Cc1ccc(C)c(COc2cc(NC(=O)c3ccccc3)ccc2N(C)S(C)(=O)=O)c1  IC50 (SK-BR-3; cell growth, MTT; 48 h): 3650 ± 190 nM
COc1cc2c(Oc3ccc4[nH]c(C)cc4c3F)ncnc2cc1OCCCN1CCCC1  IC50 (U-87 MG): 7270 nM
COc1cc(C(=O)n2nc(Nc3ccc(C)cc3)nc2N)cc(OC)c1OC  IC50 (A549; cell growth; 72 h): 0.51 nM
Nc1cc(C(F)(F)F)c(-c2nc(N3CCOCC3)nc(N3CCOCC3)n2)cn1  remaining activity (MAP4K1 (Homo sapiens, UniProt Q92918); enzyme activity; 10 µM; baseline: untreated): 66%
CO[C@@H]1CCN(c2nccc(Nc3cc4c(C(C)C)ccc(N5C[C@H](CS(C)(=O)=O)[C@H]5C)c4cn3)n2)C[C@@H]1F  IC50 (Ba/F3 EGFR Del19/T790M/C797S; cell growth): 4 nM
CO[C@H]1C[C@@H]2CC[C@@H](C)[C@@](O)(O2)C(=O)C(=O)N2CCCC[C@H]2C(=O)O[C@H]([C@H](C)C[C@@H]2CC[C@@H](O)[C@H](OC)C2)CC(=O)[C@H](C)/C=C(\C)[C@@H](O)[C@@H](OC)C(=O)[C@H](C)C[C@H](C)/C=C/C=C/C=C/1C  IC50 (U-87 MG): 50 nM
O=C(Nc1nccs1)c1cnn(-c2ccccc2)c1-n1cccc1  IC50 (human monocytes; phagocytosis of anti-D RBCs): > 5000 nM
CNC(C)C1CCC(N)C(OC2C(N)CC(N)C(OC3OCC(C)(O)C(NC)C3O)C2O)O1 (stereo not drawn)  MIC (Acinetobacter baumannii; clinical isolate RKI-No_596/16): > 8 µg/mL
Nc1nc(Cl)nc2c1ncn2[C@H]1C[C@H](O)[C@@H](CO)O1  IC50 (U-266): ~2430 nM

For quick reference, copied from above:
CC(=O)Nc1cccc(-n2c(=O)n(C3CC3)c(=O)c3c(Nc4ccc(I)cc4F)n(C)c(=O)c(C)c32)c1  IC50 (U-87 MG): 2720 nM
Nc1cc(C(F)(F)F)c(-c2nc(N3CCOCC3)nc(N3CCOCC3)n2)cn1  remaining activity (MAP4K1 (Homo sapiens, UniProt Q92918); enzyme activity; 10 µM; baseline: untreated): 66%
